Measurements gathered from unrelated publications.
Parts stem from different laboratories: compare values within a part only.

Sample 1 — method: protein-binding microarray; form: double-stranded DNA, one strand shown; matrix: in vitro; tested at: 940 nM top; setting: 60-bp whole probe; added: salmon DNA 0.4 mg/ml; relative to: random background probes; reading: higher = stronger binding; shared flanks, not repeated: GCCTAGCAC … GTCTTGATTCGCTTGACGCTGCTG
Target: Interferon regulatory factor 5, full length, phosphomimetic (IRF5, Homo sapiens, UniProt Q13568-2, residues 1-514, S451D/S453D/S456D/S462D)
Under “fitted relative affinity”, `GACGATTTGAGACTGGAGACGTGCTAG` is recorded as -0.412 z-score.
For `TTAGGTCTCCTTCTCCTTTTGTGCTAG`, “fitted relative affinity” read 0.827 z-score.
Under “fitted relative affinity”, `GACGGACTGGTGTTTCGGGACGTGCTA` is recorded as 0.545 z-score.
`TTAGATATCGGGTATCGGTTAGTGCTA` — result for “fitted relative affinity”: 3.41 z-score.
`GACGGTCTCCATTTCCTGACGTGCTAG` — result for “fitted relative affinity”: 0.53 z-score.
`GACGATTTCAGACTGGAGAGGTGCTAG` — result for “fitted relative affinity”: -0.41 z-score.
Under “fitted relative affinity”, `TTAGATCTCGGGTTTCGATTAGTGCTA` is recorded as 5.18 z-score.

Sample 2 — method: RNA Bind-n-Seq; form: RNA; matrix: in vitro; tested at: 365 nM; relative to: no-protein control; reading: higher = stronger binding
Target: RNA binding protein fox-1 homolog 2, RRM domain, GST-SBP tag (RBFOX2, Homo sapiens, UniProt O43251-10, residues 100-194)
Setting: natural RNA segment, single round, ends assumed
Residues (chain): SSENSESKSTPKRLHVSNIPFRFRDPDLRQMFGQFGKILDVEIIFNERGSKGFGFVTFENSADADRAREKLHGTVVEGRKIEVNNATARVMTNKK
Under “RBNS enrichment (R)”, `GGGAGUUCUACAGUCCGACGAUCAGGAAAAGCUACAUACCGAAGGGCUUUUGUAUAUGAAUUCUGUGGUGGGGAGACCCAUUUGUAAUCUAUAUGGCAGUUCCAUCUGGGUUUUAAGUUUAGAUUUCACCGUGUGGAAUUCUCGGGUGCCAA` is recorded as 0.387.
`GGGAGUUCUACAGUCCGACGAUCAUACUUCAGCUGUUCUUUGCCUGCACUUAUUAUAUACAUUGUUUCAUGCACAGUUAUUACAAAUCAGGAGCGUUUGGAAAGUUCACUGGGACGAGUGUGAUUUUUUGUUGUGGAAUUCUCGGGUGCCAA` — result for “RBNS enrichment (R)”: 0.39.
`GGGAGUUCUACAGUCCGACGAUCUGUGUGUGGAGGAUUUACAGCUAAGCUGUAGUUGCAGAGUACAUGUACAGUAAUGAAGUUCACUGUGUUUAUAAAUUGAAAAGGUACCAGGUCUUACAGCAUUUUAUAUAUGGAAUUCUCGGGUGCCAA`: “RBNS enrichment (R)” 0.578.
`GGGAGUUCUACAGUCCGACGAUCGUGUAUAAGCAUACAUGGGAAUUUUUCUGAAUGUAAGCAGUUUUGAUGUGUCUGUAUAUCAAUCUGUAUCUACAUUUGAUGGACUGAGUAAGAAUGUUGCAUGUGAGAGAUGGAAUUCUCGGGUGCCAA` — result for “RBNS enrichment (R)”: 7.89.
Under “RBNS enrichment (R)”, `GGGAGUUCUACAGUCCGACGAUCUGCAAGCCUUUGUCCGGCACGUGCAGAGUAGGGCGCCGACUGCUGUCUACCUGCUGCUCCUACCAACCUGCACUGCAGCCUGGGUAGAGGGCGCUGCCACCACAAGGCCAUGGAAUUCUCGGGUGCCAA` is recorded as 0.234.
For `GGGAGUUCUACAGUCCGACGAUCGGGCAGGAGAACCCCUCGCUUUCCCCACCAUGGGAGCAUUUGCUGGGAAGUGUCUUUUCAGGACUUAAAUCACCGGAGCCACUGUGGUAGCUUGUGGGGGUGGGUGGGCAUGGAAUUCUCGGGUGCCAA`, “RBNS enrichment (R)” read 1.14.
`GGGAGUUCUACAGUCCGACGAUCUGUCAGUACCAUGUCUACCCAUUGCCAUGAACUGUGGUCUAUAGAAAGGAAGUGAAAGGUAAAUAGUCACCUACGGUCCUAGGAACCAUGCCUGCCACCUAACCACCUACUGGAAUUCUCGGGUGCCAA` — result for “RBNS enrichment (R)”: 0.319.
For `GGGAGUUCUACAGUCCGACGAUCAGUGAUUUGGGUUUUAUUUUGUAUUUGCAGGGUUUGUCAUUAAUAAUUAAUGCCCCUCUCUUACAGAACACUCCUAUUUGUACCUCAACAAAUGCAAAUUUUCCCCGUUUUGGAAUUCUCGGGUGCCAA`, “RBNS enrichment (R)” read 0.375.

Sample 3 — method: RNA Bind-n-Seq; form: RNA; matrix: in vitro; tested at: 1 µM; setting: whole 134-nt RNA, ends assumed; added: 150 mM KCl; relative to: input library; reading: higher = stronger binding
Target: Ras GTPase-activating protein-binding protein 1, C-terminal RGG region (G3BP1, Homo sapiens, UniProt Q13283)
UniProt Q13283, sequence (whole entry, looked up): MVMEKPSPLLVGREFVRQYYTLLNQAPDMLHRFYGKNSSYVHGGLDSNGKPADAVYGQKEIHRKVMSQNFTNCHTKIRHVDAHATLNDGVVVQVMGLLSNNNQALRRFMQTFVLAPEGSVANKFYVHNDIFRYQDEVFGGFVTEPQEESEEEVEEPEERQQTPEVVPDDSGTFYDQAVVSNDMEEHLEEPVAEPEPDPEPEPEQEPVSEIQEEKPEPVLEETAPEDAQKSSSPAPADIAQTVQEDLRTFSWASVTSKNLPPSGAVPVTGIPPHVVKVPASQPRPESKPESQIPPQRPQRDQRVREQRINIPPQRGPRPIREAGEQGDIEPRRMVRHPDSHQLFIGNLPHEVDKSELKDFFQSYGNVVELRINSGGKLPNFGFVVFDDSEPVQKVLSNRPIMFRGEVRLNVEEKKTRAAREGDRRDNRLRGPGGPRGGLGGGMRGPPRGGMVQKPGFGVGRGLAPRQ
For `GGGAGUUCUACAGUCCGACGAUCGCAGGAAGUAAAAACAAAUGGAAAUGCUUCGGAUAGUGGCAGGGGUGGGGGUUGGUAAGGAAAGGGUGGGAUGGGAGUGGGUAAAGAGUUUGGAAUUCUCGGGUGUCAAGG`, the log2 enrichment was 2.98.
The log2 enrichment of `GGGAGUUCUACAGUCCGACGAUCUGGGAGGUGGAUUUUGUUUAUUUUUUUAGCUCAUUUCCAGGGGUGGGAAUUUUUUUUUAAUAUGUGUCAUGAAUAAAGUUGUUAUUGAAAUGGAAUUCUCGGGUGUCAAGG` is reported as 3.49.
`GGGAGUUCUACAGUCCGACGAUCUGGGAGGUGGAUUUUGUUUAUUUUUUUAGCUCAUUUCCAGGGGUGUGAAUUUUUUUUUAAUAUGUGUCAUGAAUAAAGUUGUUUUUGAAAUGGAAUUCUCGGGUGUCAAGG` gave a log2 enrichment of 3.1.
With `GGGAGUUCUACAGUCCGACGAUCAGUCCUGUGCUACACAUCGUAUGUACCGAAUCGGGGAAAGGGGUUUUUGGGGUGGGGAAAGUAUUAUGUUACGCCGUUCGGAUCUGCACUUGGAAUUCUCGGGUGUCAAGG` the log2 enrichment was 1.9.
With `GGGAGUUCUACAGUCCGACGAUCCAAGUCCUGUGCUACACAUCGUAUGUACCGAAUCGGGUUUGGGUGGGAAAAAGGGAAAGUAUUAUGUUACGCCGUUCGGAUCUGCACUUCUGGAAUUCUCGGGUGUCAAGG` the log2 enrichment was 1.9.
For `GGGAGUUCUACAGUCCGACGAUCUGGCCCUGGUGGCAUGCGGGGAGGAAGAGGUGGCCUAAUGGAUCGUGGUGGUCCCGGUGGAAUGUUCAGAGGUGGCCGUGGUGGAGACAGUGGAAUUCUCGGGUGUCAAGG`, the log2 enrichment was 2.4.
The log2 enrichment of `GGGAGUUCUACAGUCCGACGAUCCUCAAGUCCUGUGCUACACAUCGUAUGUACCGAAUCGGAAAGGUUUUUGGUGGAAAGUAUUAUGUUACGCCGUUCGGAUCUGCACUUCCAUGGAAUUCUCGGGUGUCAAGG` is reported as -1.07.
With `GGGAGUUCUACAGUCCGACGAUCCUGUGCUACACAUCGUAUGUACCGAAUCGGGGAAAAAAAGGGGAAAAAAAGGGAAAAAAAGGAAAGUAUUAUGUUACGCCGUUCGGAUCUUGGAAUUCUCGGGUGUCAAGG` the log2 enrichment was -1.23.
For `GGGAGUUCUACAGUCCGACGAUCCCUGUGCUACACAUCGUAUGUACCGAAUCGGGGUUUUUGGGGAAAGGGGUUUUUUUGGGGAAAGUAUUAUGUUACGCCGUUCGGAUCUGCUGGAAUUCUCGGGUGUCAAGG`, the log2 enrichment was 1.32.

Mixed results
The fold induction of `PhoQ, residues 284 288 289 292 302 303 SNGLAW` is reported as 9.56 (PhoP, residues 12 14 15 18 19 GHCSL (Escherichia coli, UniProt P23836); Sort-seq, item: YFP reporter; E. coli; PhoQ-PhoP variant library, added: 10 µM Mg2+; relative to: high Mg2+ state, higher = stronger signaling).

For quick reference, copied from above (sample 1):
`GACGATTTCAGACTGGAGAGGTGCTAG` — result for “fitted relative affinity”: -0.41 z-score.
Under “fitted relative affinity”, `TTAGATCTCGGGTTTCGATTAGTGCTA` is recorded as 5.18 z-score.
